Published values gathered from unrelated publications.
Compare with care: the assays were run in different laboratories. “And” joins repeats or separate records; there may be more than shown. ± gives the spread as reported.

With `Cl.N[C@@H](Cc1ccc(Oc2nnc(-c3ccccc3)nn2)cc1)C(=O)O` the kobs was 1.7 s⁻¹ (iEDDA cycloaddition; aqueous DMSO 25 %; 37 °C, together with: TCO-OH 22 mM).
For `NC1(C(=O)N[C@@H](CCO)c2ccc(Cl)cc2)CCN(c2nc[nH]c3nccc2-3)CC1`, “PSA response rate” read 18.2% (human mCRPC patients; dose not given, together with: enzalutamide).
The plasma NEFA of `C[C@@H](O)CCOC(=O)C[C@@H](C)O` is reported as 0.4 mM (human; oral drink, dose not given, 30 min post dose, median, all participants).
`CC(C)NCC(O)c1ccc(O)c(O)c1` (stereo not shown) gave a sarcomere length of 1.72 µm (ventricular cardiomyocytes, C57BL/6 mouse; dose not given, 0.692 s).
Under TUNEL-positive cells, `CCc1c(C)nc(-c2ccc(Cl)s2)nc1Nc1ccc(CC(=O)O)cc1` is recorded as “decreased” (C57BL/6J mice, high-fat diet, liver; intraperitoneal, 0.3 mg/kg daily, 60% fat diet 12 weeks, dosed last four; baseline: vehicle).
`CSCCNc1nc(SCCC(F)(F)F)nc2c1ncn2[C@@H]1O[C@H](COP(=O)(O)OP(=O)(O)C(Cl)(Cl)P(=O)(O)O)[C@@H](O)[C@H]1O`: “patients with high residual reactivity” 84.2% (platelet aggregation, light transmission aggregometry; human patients, platelet-rich plasma; dose not given, 3 h, aggregation above 46%, together with: ADP 5 µM).
For `C=CCn1c(=O)c2cnc(Nc3ccc(N4CCN(C)CC4)cc3)nc2n1-c1ccc2c(n1)[C@@](O)(CC)CC2`, “tumour volume difference” read 926 ± 50.2 mm3 (AN3-CA xenograft, BALB/c nude mice; oral, 80 mg/kg, day 12, once daily x 15).
Under “TLR7 mRNA level”, `CCCCOc1nc(N)c2c(n1)N(Cc1cccc(CN3CCCC3)c1)CC(=O)N2` is recorded as “increased” (human, blood; dose not given, 12 h, alone).
`Cc1noc(C)c1-c1cc(C(O)(c2ccccn2)c2ccccn2)c2nc(C3CC3)[nH]c2c1` has a maximum induction of 30% (measured: HEXIM1 expression; human, peripheral blood; 2 mg, day 8, 1604 study).
`Fc1ccc(Nc2nc(-c3ccccc3F)no2)cc1` has an IC50 of > 125 µM (CoA-CPM signal reduction, CPM fluorescence thiol; cell-free biochemical; assay interference counter-screen, together with: CoA replacing acetyl-CoA).
`Cn1cc(Nc2nccc(-c3ccc4c(c3)CN(C3COC3)CC[C@H]4NC(=O)c3cn(C(C)(C)C)nn3)n2)cn1` — result for “pathway activation z-score”: 3.77 (measured: dopamine-DARPP32 in cAMP signaling; splenic B cells, mice; 30 mg/kg, IgD-activated in vivo; baseline: vehicle, direction not given).
With `C=CC(=O)N1CCC(c2ccc(C(N)=O)c(-c3ccc(Oc4ccccc4)cc3)n2)CC1` the PR was 56.6% (tumour response, Lugano classification; patients with relapsed/refractory MCL; independent review, 16.4 months follow-up).
`O=C(Nc1ccccc1)N1CCN(c2nc(-c3ccccc3)ns2)CC1` gave an IC50 of > 125 µM (CoA-CPM signal reduction, CPM fluorescence thiol; cell-free biochemical; assay interference counter-screen, together with: CoA replacing acetyl-CoA).
For `OC(CCN1CCCCC1)(c1ccccc1)C1CC2C=CC1C2` (stereo not shown), “EEG Alpha2-power Pz-O1” read 5 µV² (resting-state EEG; healthy elderly humans; oral, 4 mg, eyes closed, LS mean).
Under “cycles to maximum reduction”, `CC(C)n1c(C2CCNCC2)nc2c([N+](=O)[O-])c(Br)c(Br)cc21` is recorded as 3 cycles (IDH-mutated AML patients, bone marrow blasts; all dose levels, median and range).
`N#Cc1ccn2c(-c3ccncc3)c(-c3ccc(F)cc3)nc2c1`: “log2 fold change” -0.0995 (kinase binding, competitor, MIB/MS competition, measured: CDC7; Candida albicans cell lysate; 10 µM; baseline: DMSO).
`COc1cc(Nc2ncc3c(n2)-c2ccc(Cl)cc2C(c2c(F)cccc2OC)=NC3)ccc1C(=O)O` — result for “relative tumour volume T/C”: 1.17 (mice, NB-1382 neuroblastoma xenograft; oral, 20.8 mg/kg, day 21).
For `C[C@H](Oc1ccc(Br)cc1-c1ccon1)C(=O)O`, “relative refractory period” read 2.98 ms (muscle velocity recovery cycles; human, tibialis anterior muscle; 1200 mg single dose, 3.5 h).
With `Cc1ccc(NS(=O)(=O)C2CS(=O)(=O)c3ccccc32)nc1` (stereo not shown) the IC50 was > 125 µM (CoA-CPM signal reduction, CPM fluorescence thiol; cell-free biochemical; assay interference counter-screen, together with: CoA replacing acetyl-CoA).
Under “hexose phosphate concentration”, `OCC(O)CO` is recorded as 0.864 mM and 0.658 mM and 0.605 mM and 0.721 mM and 0.495 mM (targeted LC-MS metabolomics; Mus musculus male Slc25a13 knockout, liver; drinking water, 5% w/v, 2 days).
`O=C1CC(Nc2ccccc2)C(=O)N1c1ccc(Br)cc1` (stereo not shown) has an IC50 of > 125 µM (CoA-CPM signal reduction, CPM fluorescence thiol; cell-free biochemical; assay interference counter-screen, together with: CoA replacing acetyl-CoA).
`O=C(NC[C@H]1CN(c2ccc(N3CCOCC3=O)cc2)C(=O)O1)c1ccc(Cl)s1` — result for “maximum prothrombin time prolongation”: 8.49 (human moderate renal impairment, plasma; 10 mg, mean, unit not given; baseline: baseline).
`Sc1ncnc2[nH]cnc12` gave an IC50 of > 125 µM (CoA-CPM signal reduction, CPM fluorescence thiol; cell-free biochemical; assay interference counter-screen, together with: CoA replacing acetyl-CoA).
The plasma C4 of `CCCCC1(CCCC)CN(c2ccccc2)c2cc(SC)c(OCC(=O)N[C@@H](C(=O)NCC(=O)O)c3ccccc3)cc2S(=O)(=O)C1` is reported as 54.6 ng/mL (measured: 7α-hydroxy-4-cholesten-3-one; human, plasma; 10 mg once daily, day 14).
For `CCCCc1nc2c(N)nc3ccccc3c2n1Cc1ccc(CN)cc1`, CD86 induction read “increased” (CD86 expression, flow cytometry; CD20+ B cells in PBMC, human; 100 or 1000 nM).
`O=C(O)CCC(=O)O.[2H]C([2H])([2H])Oc1cc(C)c2[nH]ccc2c1CN1CC[C@@H](C2CC2)C[C@H]1c1ccc(C(=O)O)cc1` gave a maximum inhibition of 47.5% (EIA, measured: complement fragment Bb; human, plasma; 200 mg once daily, multiple ascending dose).
Under “share of responses”, `CC(C)[C@H](NC(=O)[C@H](Cc1ccc(O)cc1)NC(=O)[C@H](Cc1ccc(O)cc1)NC(=O)[C@@H]1CCCN1C(=O)[C@H](CCC(=O)O)NC(=O)[C@H](CCC(=O)O)NC(=O)[C@H](Cc1c[nH]c2ccccc12)NC(=O)[C@@H]1CCCN1C(=O)[C@@H](NC(=O)[C@H](CCC(N)=O)NC(=O)c1ccc2c(c1)C(=O)OC21c2ccc(O)cc2Oc2cc(O)ccc21)C(C)C)C(=O)N[C@H](C(=O)N[C@@H](CCCCN)C(=O)N[C@@H](CCCCN)C(=O)N[C@@H](CO)C(=O)N[C@@H](CO)C(=O)NCC(=O)NCC(N)=O)C(C)C` is recorded as 14.2% (surgeon confidence in nerve; human head and neck surgery, nerves; 500 mg, improved; baseline: white light).
The IC50 of `CC[C@H](C)[C@H](NC(=O)[C@H](CO)NC(=O)[C@H](CCCNC(=N)N)NC(C)=O)C(=O)N[C@H]1CSSC[C@@H](C(=O)N[C@H](C(N)=O)[C@@H](C)O)NC(=O)[C@H](CCCNC(=N)N)NC(=O)[C@H](Cc2c[nH]cn2)NC(=O)[C@H](C)NC(=O)CNC(=O)[C@H](Cc2c[nH]c3ccccc23)NC(=O)[C@H](CC(=O)O)NC(=O)[C@H](CCC(N)=O)NC(=O)[C@H](Cc2c[nH]c3ccccc23)NC(=O)[C@H](C(C)C)NC1=O` is reported as 0.58 ± 0.1 µM (complement activation, inhibitor, ELISA, measured: C3b; normal human serum).
For `C[C@H]1C[C@H]2CSC(N)=N[C@@]2(c2nc(NC(=O)c3ccc(OC(F)F)cn3)cs2)CO1`, “percent change from baseline” read -59.6% (measured: Aβx-40; healthy adults, plasma; 50 mg once daily, day 14; baseline: placebo).
For `CO[C@@H]1[C@@H](OC(N)=O)[C@@H](O)[C@H](Oc2ccc3c(O)c(NC(=O)c4ccc(O)c(CC=C(C)C)c4)c(=O)oc3c2C)OC1(C)C`, the colony survival was 94% and 92% and 91.9% and 83.3% and 75.8% (Brca1 wild-type MEFs, mouse; 12.5 µM).
`CC(=O)Oc1cc2c(s1)CCN(C(C(=O)C1CC1)c1ccccc1F)C2` (stereo not shown): “patients with IPA above threshold” 0% (platelet aggregation, light transmittance aggregometry; human, platelet-rich plasma; dose not given, 15 min, IPA above 80 %, together with: TRAP 5 µM; baseline: patients).
For `C[C@@H](NC(=O)N1C(=O)[C@H](Cc2ccnc(N)c2)[C@H]1C(=O)O)C1CCCCC1`, “maximum prothrombin time” read 13.3 s (human, plasma; continuous intravenous infusion, 1.5 mg/kg/h, days 1 to 6 of 5-day infusion, mean).
The EC50 of `CC1(C)CCC(CN2CCN(c3ccc(C(=O)NS(=O)(=O)c4ccc(NCC5CCOCC5)c([N+](=O)[O-])c4)c(Oc4cnc5[nH]ccc5c4)c3)CC2)=C(c2ccc(Cl)cc2)C1` is reported as 1.24 µM (cell kill, PI exclusion flow cytometry; neoplastic B cells, human, thawed lymph node; 24 h).
The blood glucose of `CO[C@H]1C[C@@H]2CC[C@@H](C)[C@@](O)(O2)C(=O)C(=O)N2CCCC[C@H]2C(=O)O[C@H]([C@H](C)C[C@@H]2CC[C@@H](O)[C@H](OC)C2)CC(=O)[C@H](C)/C=C(\C)[C@@H](O)[C@@H](OC)C(=O)[C@H](C)C[C@H](C)/C=C/C=C/C=C/1C` is reported as 162 mg/dL (oral glucose tolerance test; healthy adult horses; dose not given, 90 min, baseline before treatment).
Under “fractional hepatic DNL”, `COc1ccccc1[C@H](Cn1c(=O)n(C(C)(C)C(=O)O)c(=O)c2c(C)c(-c3ncco3)sc21)OC1CCOCC1` is recorded as 6.35 % new palmitate ([1-13C]acetate infusion, isotopomer analysis; overweight or obese healthy men, plasma VLDL-TG palmitate; oral, 200 mg single dose, 0 h relative to dose, fasted baseline).
With `O=S(=O)(NCc1ccccc1)c1ccc(Br)c2nsnc12` the IC50 was > 125 µM (CoA-CPM signal reduction, CPM fluorescence thiol; cell-free biochemical; assay interference counter-screen, together with: CoA replacing acetyl-CoA).
`CO[C@H]1CC[C@H](N2C(=O)CNc3ncc(-c4ccc(C(C)(C)O)nc4)nc32)CC1` — result for “p4EBP1 change from baseline”: -36.9% (flow cytometry; stimulated T cells, human, blood; 30 mg single dose, 24 h, mean; baseline: baseline).

For quick reference, copied from above:
`O=C1CC(Nc2ccccc2)C(=O)N1c1ccc(Br)cc1` (stereo not shown) has an IC50 of > 125 µM (CoA-CPM signal reduction, CPM fluorescence thiol; cell-free biochemical; assay interference counter-screen, together with: CoA replacing acetyl-CoA).
`O=C(NC[C@H]1CN(c2ccc(N3CCOCC3=O)cc2)C(=O)O1)c1ccc(Cl)s1` — result for “maximum prothrombin time prolongation”: 8.49 (human moderate renal impairment, plasma; 10 mg, mean, unit not given; baseline: baseline).
`Sc1ncnc2[nH]cnc12` gave an IC50 of > 125 µM (CoA-CPM signal reduction, CPM fluorescence thiol; cell-free biochemical; assay interference counter-screen, together with: CoA replacing acetyl-CoA).
The plasma C4 of `CCCCC1(CCCC)CN(c2ccccc2)c2cc(SC)c(OCC(=O)N[C@@H](C(=O)NCC(=O)O)c3ccccc3)cc2S(=O)(=O)C1` is reported as 54.6 ng/mL (measured: 7α-hydroxy-4-cholesten-3-one; human, plasma; 10 mg once daily, day 14).
For `CCCCc1nc2c(N)nc3ccccc3c2n1Cc1ccc(CN)cc1`, CD86 induction read “increased” (CD86 expression, flow cytometry; CD20+ B cells in PBMC, human; 100 or 1000 nM).
`O=C(O)CCC(=O)O.[2H]C([2H])([2H])Oc1cc(C)c2[nH]ccc2c1CN1CC[C@@H](C2CC2)C[C@H]1c1ccc(C(=O)O)cc1` gave a maximum inhibition of 47.5% (EIA, measured: complement fragment Bb; human, plasma; 200 mg once daily, multiple ascending dose).
